Measured values of several laboratories.
Protocols differ between the studies behind these lines. Values joined by “and” are separate records of one study, mostly repeats; a detail may differ. Values after ≈ are worked out from the molar mass of the structure shown.

| Structure (SMILES) | organism | assay | test system | setting | scale | quantity | value |
| --- | --- | --- | --- | --- | --- | --- | --- |
| COc1c(NC(=O)c2ccc(NC(=O)c3ccc(NC(=O)[C@H](Cc4c[nH]nn4)NC(=O)c4ccc(NC(=O)/C(C)=C/c5ccc(O)cc5)cc4)cc3)cc2O)ccc(C(=O)O)c1O | Salmonella enterica serovar Kentucky | broth microdilution | ciprofloxacin-sensitive | – | – | MIC | 0.25 µg/mL (≈ 0.292 µM) |
| O=[N+]([O-])c1cc(Cl)c2cccnc2c1O | Streptococcus pneumoniae | microbial growth, broth dilution | ATCC49619 | – | – | MIC | 8 µg/mL (≈ 35.6 µM) |
| CC[C@H]1OC(=O)[C@H](C)[C@@H](OC(=O)Cc2c(F)cccc2F)[C@H](C)[C@@H](O[C@@H]2O[C@H](C)C[C@H](N(C)C)[C@H]2O)[C@](C)(OC)C[C@@H](C)C(=O)[C@H](C)[C@@H](O)[C@]1(C)O | Cryptococcus neoformans | microbial growth | ATCC208821 | – | – | MIC | > 32 µg/mL |
| CCCC/C=C/C(=O)N[C@@H](Cc1cc(F)cc(F)c1)C(=O)N[C@H]1COC(=O)[C@@H]2CCCN2C(=O)[C@H](C)NC(=O)[C@@H]2C[C@@H](C)CCN2C(=O)[C@@H]2CCCN2C1=O | Streptococcus pneumoniae | microbial growth, broth dilution | – | – | – | MIC | 0.012 µg/mL (≈ 0.0156 µM) |
| CC[C@H]1OC(=O)[C@H](C)C(=O)[C@H](C)[C@@H](O[C@@H]2O[C@H](C)C[C@H](N(C)C)[C@H]2O)[C@](C)(OC)C[C@@H](C)C(=O)[C@H](C)[C@H]2N(CCCCn3cnc(-c4cccnc4)c3)C(=O)O[C@]12C | Cryptococcus neoformans | microbial growth | ATCC208821 | – | – | MIC | > 32 µg/mL |
| CCOc1c(NC(=O)c2ccc(NC(=O)[C@H](Cc3c[nH]nn3)NC(=O)c3ccc(NC(=O)/C(C)=C/c4ccc(O)cc4)cc3)cc2)ccc(C(=O)Nc2ccc(C(=O)O)c(O)c2OC)c1O | Salmonella Typhimurium | broth microdilution | TA100 | – | – | MIC | 0.031 µg/mL (≈ 0.0345 µM) |
| CC[C@H]1OC(=O)[C@H](C)[C@@H](OC(=O)Cc2ccc([N+](=O)[O-])cc2)[C@H](C)[C@@H](O[C@@H]2O[C@H](C)C[C@H](N(C)C)[C@H]2O)[C@](C)(OC)C[C@@H](C)C(=O)[C@H](C)[C@@H](O)[C@]1(C)O | Cryptococcus neoformans | microbial growth | ATCC208821 | – | – | MIC | > 32 µg/mL |
| COc1cc(C(=O)Nc2ccc(C(=O)O)c(O)c2OC)ccc1NC(=O)c1ccc(NC(=O)[C@H](Cc2c[nH]nn2)NC(=O)c2ccc(NC(=O)/C(C)=C/c3ccc(O)cc3)cc2)cc1 | Salmonella Typhimurium | broth microdilution | TA100 | – | – | MIC | 0.063 µg/mL (≈ 0.0725 µM) |
| CN(CC1CCCN(CCc2cccc(C(F)(F)F)c2)C1)C(=O)c1ccco1 (centres unmarked) | Trypanosoma cruzi | reporter mRNA translation, inhibitor, item: capped polyadenylated Renilla luciferase mRNA | cell-free extract | concentration not given | baseline: positive over negative control | translation activity | 90.2% and 110% and 93.8% and 97.3% |
| CCCC/C=C/C(=O)N[C@@H](Cc1cc(F)cc(F)c1)C(=O)N[C@@H]1C(=O)N2CCC[C@H]2C(=O)N(C)[C@@H](C)C(=O)N[C@@H](C)C(=O)N2CCC[C@H]2C(=O)O[C@H]1C | Streptococcus pneumoniae | microbial growth, broth dilution | – | – | – | MIC | 0.003 µg/mL (≈ 0.00403 µM) |
| Cc1c(CN(C)C(=O)/C=C/c2cnc3c(c2)CC(N)C(=O)N3)oc2ccccc12 (centres unmarked) | Acinetobacter baumannii | broth microdilution | W41979 | – | – | MIC | 4 µg/mL (≈ 10.2 µM) |
| CC[C@H]1OC(=O)[C@H](C)[C@@H](OC(=O)Cc2ccc(C(F)(F)F)cc2)[C@H](C)[C@@H](O[C@@H]2O[C@H](C)C[C@H](N(C)C)[C@H]2O)[C@](C)(OC)C[C@@H](C)C(=O)[C@H](C)[C@@H](O)[C@]1(C)O | Cryptococcus neoformans | microbial growth | ATCC208821 | – | – | MIC | > 32 µg/mL |
| CC(C)=CCCC(C)CN(C)CCc1ccccn1 (centres unmarked) | Trypanosoma cruzi | reporter mRNA translation, inhibitor, item: Renilla luciferase mRNA | cell-free extract | concentration not given, test 2 | baseline: positive over negative control | translation activity | 96.8% |
| COc1c(NC(=O)c2ccc(NC(=O)c3ccc(NC(=O)[C@H](Cc4c[nH]nn4)NC(=O)c4ccc(NC(=O)/C(C)=C/c5ccc(O)cc5)cc4)cc3)cc2)ccc(C(=O)O)c1O | Salmonella Typhimurium | broth microdilution | TA100 | – | – | MIC | 0.063 µg/mL (≈ 0.0751 µM) |

Some of these lines once more:
| Structure (SMILES) | organism | assay | test system | setting | scale | quantity | value |
| --- | --- | --- | --- | --- | --- | --- | --- |
| CN(CC1CCCN(CCc2cccc(C(F)(F)F)c2)C1)C(=O)c1ccco1 (centres unmarked) | Trypanosoma cruzi | reporter mRNA translation, inhibitor, item: capped polyadenylated Renilla luciferase mRNA | cell-free extract | concentration not given | baseline: positive over negative control | translation activity | 90.2% and 110% and 93.8% and 97.3% |
